Measured values from different studies.
A part holds a random share of what one study measured.
Sequence of UniProt P10721 (whole entry, unmodified, looked up): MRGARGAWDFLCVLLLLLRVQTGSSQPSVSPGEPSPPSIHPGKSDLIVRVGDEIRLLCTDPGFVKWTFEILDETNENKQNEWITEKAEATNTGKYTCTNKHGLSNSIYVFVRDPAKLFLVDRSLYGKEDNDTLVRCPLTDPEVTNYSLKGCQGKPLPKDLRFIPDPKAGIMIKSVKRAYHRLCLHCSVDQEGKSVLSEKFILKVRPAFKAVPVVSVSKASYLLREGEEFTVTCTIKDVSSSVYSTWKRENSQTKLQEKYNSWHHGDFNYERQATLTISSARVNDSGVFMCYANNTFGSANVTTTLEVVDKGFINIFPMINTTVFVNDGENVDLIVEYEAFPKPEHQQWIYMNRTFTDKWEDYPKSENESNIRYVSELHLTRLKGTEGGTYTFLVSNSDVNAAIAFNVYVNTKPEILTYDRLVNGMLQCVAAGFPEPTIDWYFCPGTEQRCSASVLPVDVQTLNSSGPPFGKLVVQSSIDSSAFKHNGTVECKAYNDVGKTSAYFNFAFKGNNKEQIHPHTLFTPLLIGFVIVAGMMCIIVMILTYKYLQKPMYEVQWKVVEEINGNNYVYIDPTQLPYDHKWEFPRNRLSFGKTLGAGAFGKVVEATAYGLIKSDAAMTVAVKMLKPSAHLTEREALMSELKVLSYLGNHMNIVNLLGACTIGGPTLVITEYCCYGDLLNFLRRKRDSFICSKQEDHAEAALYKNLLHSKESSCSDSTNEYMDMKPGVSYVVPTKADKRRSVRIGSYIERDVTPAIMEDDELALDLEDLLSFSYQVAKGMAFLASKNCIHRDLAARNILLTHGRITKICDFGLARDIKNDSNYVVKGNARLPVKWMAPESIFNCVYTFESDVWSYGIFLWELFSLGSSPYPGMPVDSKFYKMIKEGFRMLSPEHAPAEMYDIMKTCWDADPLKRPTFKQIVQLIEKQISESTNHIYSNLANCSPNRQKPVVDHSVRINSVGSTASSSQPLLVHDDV
Sequence of UniProt Q9NYY3 (whole entry, looked up): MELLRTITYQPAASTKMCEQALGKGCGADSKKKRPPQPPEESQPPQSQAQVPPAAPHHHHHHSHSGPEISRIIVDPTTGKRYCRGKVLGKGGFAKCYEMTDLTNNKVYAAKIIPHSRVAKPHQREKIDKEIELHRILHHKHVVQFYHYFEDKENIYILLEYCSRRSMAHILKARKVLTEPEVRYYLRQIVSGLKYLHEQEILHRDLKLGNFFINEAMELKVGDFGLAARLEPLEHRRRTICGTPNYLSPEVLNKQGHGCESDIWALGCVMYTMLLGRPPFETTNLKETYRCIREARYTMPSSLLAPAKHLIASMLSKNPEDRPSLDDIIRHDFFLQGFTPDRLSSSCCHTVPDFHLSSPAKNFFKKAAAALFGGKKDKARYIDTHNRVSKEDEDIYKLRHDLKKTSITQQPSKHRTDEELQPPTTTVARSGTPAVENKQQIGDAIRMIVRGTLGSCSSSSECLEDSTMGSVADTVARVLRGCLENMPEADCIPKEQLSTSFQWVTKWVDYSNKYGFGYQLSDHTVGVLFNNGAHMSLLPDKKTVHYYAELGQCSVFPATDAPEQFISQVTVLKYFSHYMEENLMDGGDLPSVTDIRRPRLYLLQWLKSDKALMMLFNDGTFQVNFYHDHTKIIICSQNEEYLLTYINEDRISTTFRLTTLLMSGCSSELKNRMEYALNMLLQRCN
Sequence of UniProt P54756 (whole entry, looked up): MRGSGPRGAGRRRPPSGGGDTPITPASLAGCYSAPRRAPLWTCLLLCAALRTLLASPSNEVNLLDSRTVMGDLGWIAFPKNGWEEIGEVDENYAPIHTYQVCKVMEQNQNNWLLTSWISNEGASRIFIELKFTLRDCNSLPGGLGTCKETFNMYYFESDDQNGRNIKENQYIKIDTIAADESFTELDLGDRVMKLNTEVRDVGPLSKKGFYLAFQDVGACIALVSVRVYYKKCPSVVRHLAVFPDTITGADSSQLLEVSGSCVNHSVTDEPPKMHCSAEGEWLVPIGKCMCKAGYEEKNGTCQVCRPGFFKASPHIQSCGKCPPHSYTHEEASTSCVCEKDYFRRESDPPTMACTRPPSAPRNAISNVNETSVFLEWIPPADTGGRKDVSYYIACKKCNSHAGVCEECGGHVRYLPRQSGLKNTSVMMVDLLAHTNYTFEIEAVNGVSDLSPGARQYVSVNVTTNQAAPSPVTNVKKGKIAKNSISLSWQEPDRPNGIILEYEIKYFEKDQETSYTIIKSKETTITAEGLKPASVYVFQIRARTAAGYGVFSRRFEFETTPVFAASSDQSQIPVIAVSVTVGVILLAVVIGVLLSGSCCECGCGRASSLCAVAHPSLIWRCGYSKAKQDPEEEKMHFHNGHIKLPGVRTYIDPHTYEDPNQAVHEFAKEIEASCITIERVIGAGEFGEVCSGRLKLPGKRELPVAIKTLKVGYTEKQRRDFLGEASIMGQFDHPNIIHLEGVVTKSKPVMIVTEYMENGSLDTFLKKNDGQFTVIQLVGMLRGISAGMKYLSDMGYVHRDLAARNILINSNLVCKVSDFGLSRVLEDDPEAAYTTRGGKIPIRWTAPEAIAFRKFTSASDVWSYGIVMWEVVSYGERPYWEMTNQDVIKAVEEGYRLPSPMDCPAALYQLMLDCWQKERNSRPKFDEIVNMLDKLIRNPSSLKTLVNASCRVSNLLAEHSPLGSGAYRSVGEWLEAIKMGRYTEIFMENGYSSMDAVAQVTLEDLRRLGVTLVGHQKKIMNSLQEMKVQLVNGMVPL
Sequence of UniProt Q05655 (whole entry, looked up): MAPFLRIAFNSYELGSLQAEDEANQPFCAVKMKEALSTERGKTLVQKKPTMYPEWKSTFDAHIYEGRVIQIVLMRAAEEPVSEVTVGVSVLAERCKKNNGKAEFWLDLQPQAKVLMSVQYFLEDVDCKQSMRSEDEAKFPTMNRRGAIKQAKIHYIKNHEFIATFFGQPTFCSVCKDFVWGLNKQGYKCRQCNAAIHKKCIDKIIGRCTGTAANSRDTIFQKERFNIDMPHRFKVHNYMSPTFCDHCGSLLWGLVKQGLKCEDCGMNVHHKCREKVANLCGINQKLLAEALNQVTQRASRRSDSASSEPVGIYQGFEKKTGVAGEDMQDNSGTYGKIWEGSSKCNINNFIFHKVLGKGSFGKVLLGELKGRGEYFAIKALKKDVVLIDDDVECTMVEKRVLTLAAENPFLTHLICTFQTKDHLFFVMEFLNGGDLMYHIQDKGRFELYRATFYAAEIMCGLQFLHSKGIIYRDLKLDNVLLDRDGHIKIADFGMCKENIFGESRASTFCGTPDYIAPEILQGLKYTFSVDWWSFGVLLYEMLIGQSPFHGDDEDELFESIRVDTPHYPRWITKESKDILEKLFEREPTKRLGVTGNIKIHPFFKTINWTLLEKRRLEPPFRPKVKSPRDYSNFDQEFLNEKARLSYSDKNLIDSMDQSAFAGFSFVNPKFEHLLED
Sequence of UniProt P07948 (whole entry, looked up): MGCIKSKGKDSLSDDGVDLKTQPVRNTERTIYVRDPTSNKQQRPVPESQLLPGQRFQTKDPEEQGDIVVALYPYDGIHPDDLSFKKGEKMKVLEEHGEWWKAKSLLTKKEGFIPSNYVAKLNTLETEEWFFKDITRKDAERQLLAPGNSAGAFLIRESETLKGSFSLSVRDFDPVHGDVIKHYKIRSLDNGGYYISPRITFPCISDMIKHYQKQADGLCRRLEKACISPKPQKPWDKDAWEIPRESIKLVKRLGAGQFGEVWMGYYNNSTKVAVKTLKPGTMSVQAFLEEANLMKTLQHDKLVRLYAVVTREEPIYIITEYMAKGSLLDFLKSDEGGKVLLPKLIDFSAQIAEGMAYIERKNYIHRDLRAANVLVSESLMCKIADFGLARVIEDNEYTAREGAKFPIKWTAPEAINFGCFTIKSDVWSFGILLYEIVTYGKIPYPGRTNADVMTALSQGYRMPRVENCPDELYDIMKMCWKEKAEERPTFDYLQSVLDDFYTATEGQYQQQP

Series 1
Target: Beta-1 adrenergic receptor (ADRB1, Homo sapiens, UniProt P08588)
Sequence of UniProt P08588 (whole entry, looked up): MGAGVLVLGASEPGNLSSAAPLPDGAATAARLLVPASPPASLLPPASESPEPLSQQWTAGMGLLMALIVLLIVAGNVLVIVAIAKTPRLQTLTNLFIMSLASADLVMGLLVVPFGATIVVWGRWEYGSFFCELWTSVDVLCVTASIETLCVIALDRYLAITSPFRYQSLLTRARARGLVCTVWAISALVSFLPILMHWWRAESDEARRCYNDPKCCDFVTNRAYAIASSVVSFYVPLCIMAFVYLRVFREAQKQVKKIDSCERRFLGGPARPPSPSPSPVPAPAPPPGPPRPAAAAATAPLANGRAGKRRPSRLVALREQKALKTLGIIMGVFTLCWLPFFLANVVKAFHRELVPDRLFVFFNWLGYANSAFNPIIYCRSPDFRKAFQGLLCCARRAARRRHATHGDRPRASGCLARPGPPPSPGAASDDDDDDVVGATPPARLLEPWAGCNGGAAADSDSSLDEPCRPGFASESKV
Action: agonist
With N#CC1CCN(Cc2ccccc2OCC(O)CN2CCCCC2)CC1 (stereo not drawn) the EC50 was ≥ 100 µM.
C[C@H](O)c1onc(-c2ccccc2)c1C(=O)N1CCOCC1 gave an EC50 of ≥ 100 µM.
CN(C)c1ccc(CN2CCNc3cc(Nc4cccnc4)ncc3C2)cc1 has an EC50 of ≥ 100 µM.
With O=C(NCCc1ccccn1)c1ccnc(-c2nnc3ccc(N4CCOCC4)nn23)c1 the EC50 was ≥ 100 µM.
CNC(=O)c1cc2cc(-c3c(C)noc3C)nc(-c3ccccc3C)c2o1 gave an EC50 of ≥ 100 µM.
With Cc1cc(-c2nc3ccccc3s2)nc2ccccc12 the EC50 was ≥ 100 µM.
COC[C@@]12CC[C@@H](N3CCOCC3)C[C@H]1CCN(c1nccc(NC(C)C)n1)C2 gave an EC50 of ≥ 100 µM.
For COc1ccccc1N1CCN([S+](=O)([O-])c2ccc(C)cc2)CC1, the EC50 was ≥ 100 µM.
For O=C1COCC2(CN(c3cnccn3)C2)CN1c1cccnc1, the EC50 was 4.47 µM.
For COc1ccc2c(Cn3nnc(-c4ccc(Br)cc4)n3)cc(=O)oc2c1, the EC50 was ≥ 100 µM.
For OC(CN1CCC(Cc2ccc(F)cc2)CC1)c1ccc(Cl)cc1 (stereo not drawn), the EC50 was ≥ 100 µM.
Cc1cc2nc3ccc(N(C)C)cc3[s+]c2cc1N gave an EC50 of 31.6 µM.
For CCOc1ccc(-c2cc3c(=O)n(CC(O)c4ccc(C(C)C)cc4)ccn3n2)cc1 (stereo not drawn), the EC50 was ≥ 100 µM.
For COc1cc(CNC2CCCCCCC2)ccc1OCC(O)CN1CCSCC1 (stereo not drawn), the EC50 was ≥ 100 µM.
With N#CC(c1ccccc1)c1cnn(-c2ccccc2)c(=O)c1Cl (stereo not drawn) the EC50 was ≥ 100 µM.

Series 2
SMILES: O=C(NC[C@@H]1[C@H]2CN(C(=O)OCc3cc(C(F)(F)F)cc(C(F)(F)F)c3)C[C@@H]12)c1ccc2[nH]nnc2c1
Effect on: cell-free assay
Method: competition with immobilised ligand
Concentration: 1 µM
The remaining binding was 89% (PLK2 (Homo sapiens, UniProt Q9NYY3)).
NEK10 (Homo sapiens, UniProt Q6ZWH5) — remaining binding: 73%.
The remaining binding was 85% (ROCK1 (Homo sapiens, UniProt Q13464)).
For DDR1 (Homo sapiens, UniProt Q08345): remaining binding read 83%.
KIT (Homo sapiens, UniProt P10721, V559D/V654A) — remaining binding: 99%.
AKT1 (Homo sapiens, UniProt P31749) — remaining binding: 100%.
It gave 100% for remaining binding (KIT (Homo sapiens, UniProt P10721, A829P)).
For EPHA5 (Homo sapiens, UniProt P54756): remaining binding read 100%.
The remaining binding was 75% (PIK3CD (Homo sapiens, UniProt O00329)).
It gave 87% for remaining binding (STK3 (Homo sapiens, UniProt Q13188)).
It gave 100% for remaining binding (KIT (Homo sapiens, UniProt P10721, T670I/V559D)).
The remaining binding was 100% (MET (Homo sapiens, UniProt P08581)).
For KIT (Homo sapiens, UniProt P10721, D816V): remaining binding read 93%.
The remaining binding was 78% (TAOK1 (Homo sapiens, UniProt Q7L7X3)).
EGFR (Homo sapiens, UniProt P00533, L861Q) — remaining binding: 100%.
SNRK (Homo sapiens, UniProt Q9NRH2) — remaining binding: 77%.
PIKFYVE (Homo sapiens, UniProt Q9Y2I7) — remaining binding: 100%.
For ERBB3 (Homo sapiens, UniProt P21860): remaining binding read 96%.
It gave 87% for remaining binding (Tyrosine-protein kinase ABL1, non-phosphorylated (ABL1, Homo sapiens, UniProt P00519)).
It gave 93% for remaining binding (PRKCD (Homo sapiens, UniProt Q05655)).
The remaining binding was 84% (CDKL1 (Homo sapiens, UniProt Q00532)).

Series 3
Structure (SMILES): O=C(c1cc2cc(O)ccc2[nH]1)c1cc2cc(O)ccc2[nH]1
Effect on: enzyme activity
Action: inhibitor
Concentration: 0.5 µM
Baseline: control
It gave 97.9% for remaining activity (MAPK12 (Homo sapiens, UniProt P53778)).
It gave 67.1% for remaining activity (MAP4K2 (Homo sapiens, UniProt Q12851)).
It gave 89.7% for remaining activity (PRKCD (Homo sapiens, UniProt Q05655)).
NEK4 (Homo sapiens, UniProt P51957) — remaining activity: 87.6%.
It gave 108% for remaining activity (MAPK13 (Homo sapiens, UniProt O15264)).
For LYN (Homo sapiens, UniProt P07948): remaining activity read 34.9%.
PLK2 (Homo sapiens, UniProt Q9NYY3) — remaining activity: 102%.
It gave 46.8% for remaining activity (MKNK2 (Homo sapiens, UniProt Q9HBH9)).
For PRKCI (Homo sapiens, UniProt P41743): remaining activity read 98.4%.
For LRRK2 (Homo sapiens, UniProt Q5S007): remaining activity read 87.2%.
For AKT3 (Homo sapiens, UniProt Q9Y243): remaining activity read 102%.
The remaining activity was 91.7% (MAP3K10 (Homo sapiens, UniProt Q02779)).
For EPHA5 (Homo sapiens, UniProt P54756): remaining activity read 100%.
For CSNK1A1 (Homo sapiens, UniProt P48729): remaining activity read 96.3%.
For BTK (Homo sapiens, UniProt Q06187): remaining activity read 86.8%.
It gave 82.5% for remaining activity (CHEK1 (Homo sapiens, UniProt O14757)).
For Cyclin-dependent kinase 9, with cyclin T1 (CDK9, Homo sapiens, UniProt P50750): remaining activity read 76.6%.
For WNK2 (Homo sapiens, UniProt Q9Y3S1): remaining activity read 96.6%.
The remaining activity was 90% (PRKG1 (Homo sapiens, UniProt Q13976)).
The remaining activity was 85.9% (IRAK4 (Homo sapiens, UniProt Q9NWZ3)).
It gave 88.7% for remaining activity (CSNK2A1 (Homo sapiens, UniProt P68400)).
The remaining activity was 93.6% (MAP2K6 (Homo sapiens, UniProt P52564)).

Series 4
Target: Calcium/calmodulin-dependent protein kinase type II subunit alpha (CAMK2A, Homo sapiens, UniProt Q9UQM7)
Sequence of UniProt Q9UQM7 (whole entry, looked up): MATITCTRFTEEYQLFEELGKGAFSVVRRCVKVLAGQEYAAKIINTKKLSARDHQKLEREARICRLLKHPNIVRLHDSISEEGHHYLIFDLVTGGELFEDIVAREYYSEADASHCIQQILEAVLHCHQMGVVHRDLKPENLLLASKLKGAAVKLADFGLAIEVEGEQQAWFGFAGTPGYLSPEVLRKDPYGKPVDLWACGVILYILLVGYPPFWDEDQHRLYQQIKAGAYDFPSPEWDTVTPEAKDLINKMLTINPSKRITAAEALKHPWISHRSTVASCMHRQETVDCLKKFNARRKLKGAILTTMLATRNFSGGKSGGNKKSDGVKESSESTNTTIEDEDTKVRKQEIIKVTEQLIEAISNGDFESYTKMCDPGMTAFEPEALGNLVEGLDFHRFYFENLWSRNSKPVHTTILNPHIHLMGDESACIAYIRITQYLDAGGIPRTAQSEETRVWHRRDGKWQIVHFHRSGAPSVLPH
Effect on: enzyme activity
Action: inhibitor
Concentration: 10 µM
The inhibition of O=C(Nc1ccccc1)c1ccccc1O is reported as -2%.
NCC(=O)O gave an inhibition of 3%.
COc1ccc(/C=C/C(=O)c2cc(CC=C(C)C)c(OC)cc2O)cc1 gave an inhibition of 19%.
Cc1cccc2c3c(ccc12)C1=C(C(=O)C3=O)[C@@H](C)CO1 gave an inhibition of 3%.
CC1(C)CC[C@]2(C(=O)O[C@@H]3O[C@H](CO)[C@@H](O)[C@H](O)[C@H]3O)CC[C@]3(C)C(=CC[C@@H]4[C@@]5(C)CC[C@H](O)C(C)(C)[C@@H]5CC[C@]43C)[C@@H]2C1 has an inhibition of -2%.
CC(=O)OC[C@H](Cc1ccccc1)NC(=O)[C@H](Cc1ccccc1)NC(=O)c1ccccc1 has an inhibition of -25%.
With CC1=C(O)C(=O)C(C)O1 (stereo not drawn) the inhibition was -1%.
For O=c1c2cc(O)ccc2oc2cc(O)cc(O)c12, the inhibition was -67%.
The inhibition of C[C@@H]1O[C@@H](O[C@H]2[C@H](Oc3cc(O)c4c(=O)cc(-c5ccc(O)cc5)oc4c3)O[C@H](CO)[C@@H](O)[C@@H]2O)[C@H](O)[C@H](O)[C@H]1O is reported as 7%.
O=C1C[C@@H](c2ccccc2)Oc2cc(O)cc(O)c21 gave an inhibition of -19%.
With CC(C)CCC[C@@H](C)[C@H]1CC[C@H]2[C@@H]3CC(=O)[C@H]4C[C@@H](O)CC[C@]4(C)[C@H]3CC[C@]12C the inhibition was -7%.
For C[C@@H](O)C(=O)O, the inhibition was -30%.
CCCCC1=NC2(CCCC2)C(=O)N1Cc1ccc(-c2ccccc2-c2nnn[nH]2)cc1 has an inhibition of 1%.
The inhibition of Clc1ccc(C(Cn2ccnc2)OCc2c(Cl)cccc2Cl)c(Cl)c1 (stereo not drawn) is reported as -10%.

For quick reference, copied from above (series 2):
It gave 87% for remaining binding (STK3 (Homo sapiens, UniProt Q13188)).
It gave 100% for remaining binding (KIT (Homo sapiens, UniProt P10721, T670I/V559D)).
The remaining binding was 100% (MET (Homo sapiens, UniProt P08581)).
For KIT (Homo sapiens, UniProt P10721, D816V): remaining binding read 93%.
The remaining binding was 78% (TAOK1 (Homo sapiens, UniProt Q7L7X3)).
EGFR (Homo sapiens, UniProt P00533, L861Q) — remaining binding: 100%.
SNRK (Homo sapiens, UniProt Q9NRH2) — remaining binding: 77%.
PIKFYVE (Homo sapiens, UniProt Q9Y2I7) — remaining binding: 100%.
For ERBB3 (Homo sapiens, UniProt P21860): remaining binding read 96%.
It gave 87% for remaining binding (Tyrosine-protein kinase ABL1, non-phosphorylated (ABL1, Homo sapiens, UniProt P00519)).
It gave 93% for remaining binding (PRKCD (Homo sapiens, UniProt Q05655)).
